Assay results gathered from unrelated publications.
Each numbered part is a random draw from the data of one study; scales do not carry over between parts. Positions count from the first letter of the parent shown.

Set 1 — target: CCNF, cyclin fold, Cln2 fusion (human); method: yeast growth competition, sequencing; matrix: yeast; notes: strong parent motif; relative to: not given; reading: higher = stronger binding
Starting sequence: CDC25A docking peptide (human); PPHRRRLLFACSP
Variant | normalised enrichment score
PPHRRNLLFACSP [R6N] | 2.18
PPGRRRLLFACSP [H3G] | 9.17
PPHRRSLLFACSP [R6S] | 2.78
PPHRRRLLFACLP [S12L] | 6.61
PPHRRRLLDACSP [F9D] | 0.248
PPHRRRLLFACSS [P13S] | 7.2
PPHRRRLLFACRP [S12R] | 6.68
PPHRRRLLRACSP [F9R] | 2.34
PPHRRCLLFACSP [R6C] | 4.97
FPHRRRLLFACSP [P1F] | 7.31
APHRRRLLFACSP [P1A] | 7.62
PPHRRKLLFACSP [R6K] | 7.97
PPHRTRLLFACSP [R5T] | 1.4
PSHRRRLLFACSP [P2S] | 6.33
PPHHRRLLFACSP [R4H] | 2.89
PPHKRRLLFACSP [R4K] | 6.23
PPHRRRLLFECSP [A10E] | 9.25
PPHRRRLLFACNP [S12N] | 8.06

Set 2 — method: protein-binding microarray; form: double-stranded DNA, one strand shown; matrix: in vitro; tested at: 0.8 µM; notes: whole 60-bp probe, no competitor; reading: higher = stronger binding; all sequences stand within: … GTCTTGATTCGCTTGACGCTGCTG
Target: Centromere-binding protein 1, full length, N-terminal tag (CBF1, Saccharomyces cerevisiae, UniProt P17106, residues 1-351)
Sequence | fluorescence intensity [a.u.]
CTATATAATATTCACATGGTGCTCTACCGTTTTTTC | 726
GAACACTAATTGTTAAACGTGTCAATTATGTGTTAG | 620
GAACTATTGTTTTGTCATCAGAACCAAATGCCATAG | 582
CCTAACTACTATAGTCGCACGCCATAGCTTCGTACA | 512
CTAGTATTATTGAGTCACGTGCTTTATTCCATGTTC | 23400
CTACGCTCATAATATCATGTGATTCTCTCGATGTTC | 3230
GAACTGCCTGCCTATCTGATGCTTTGCCACCACTAG | 499
GAAAGGCTCTACACCCACGAGCAATCGCCTTTTTAG | 502
CTATTTTTTGTCCACCACCAAAATGTCAATTTTTTC | 576
CTACGATATGCCCGGAACGTGCTTCCCATTGGTTTC | 798
CTAGCAAGAACCCTTCACATGTCACACCTGCACTTC | 776
CTATCTCCACTCTTTCTCCACGTGGCTTTGCTTTTC | 3080
CTATAGCTTAACTGGCACATCATGAAAAGGATGTTC | 692
GAATGTAGCTGACTACACGTTTCAAACCCAATCTAG | 579
CTAATTCTGAGCCATCTCTCCTGATATATAAGATTC | 522
GAATAGATCGAGGCCAAGGTGGTGGTTTATAAATAG | 498
GAATAATACCCCAGTCACGAAAGGTGTGCTGCTTAG | 545

Set 3 — method: protein binding microarray; form: double-stranded DNA, one strand shown; matrix: in vitro; tested at: not given; relative to: not given; reading: higher = stronger binding
Target: Histone acetyltransferase KAT6A, both winged helices, GST fusion (KAT6A, Homo sapiens, UniProt Q92794, residues 1-181)
Notes: 8-mer, flanks averaged, mean of 2 arrays, mostly near background
Residues (chain): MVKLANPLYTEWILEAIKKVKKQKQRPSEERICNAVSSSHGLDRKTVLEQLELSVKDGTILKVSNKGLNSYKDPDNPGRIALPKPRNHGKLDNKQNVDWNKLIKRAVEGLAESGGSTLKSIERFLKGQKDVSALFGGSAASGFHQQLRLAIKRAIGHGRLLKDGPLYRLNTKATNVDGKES
Sequence | E-score
ATTCAATA | -0.122
GACATTTA | -0.0512
ACGGCGCT | 0.339
ATGACGGG | 0.269
CTCATAAC | -0.17
AAACAAGG | -0.171
CCGACAAG | 0.0783
AGCACTAG | -0.188
GCAACTGC | 0.0612
CGTTGCTA | -0.0897
CCTCTTCC | -0.116
ATGTGAGC | -0.0725
CTGAGTAC | -0.0703
TGTATACA | -0.0023
ATAATTCG | 0.00702
AGGGTTTC | -0.0294
ATCATTTA | -0.0109
AAAGACAT | -0.0814
ATCAAACC | 0.0525
GATTGCCA | -0.164
TCAGTGAA | -0.125
AGTACCAA | -0.132
GTCGGGCA | 0.0723
ATGTATCA | -0.122
ACCAAGGG | -0.167

Set 4 — method: DHFR PCA, deep sequencing; matrix: yeast; added: (+)-ABA 710 µM; relative to: wild-type fitted maximum; reading: higher = stronger binding
Target: ABI1, truncated, D143A, DHFR fusion (Arabidopsis thaliana)
Notes: methotrexate growth selection, single substitutions
Starting sequence: PYL1, truncated, DHFR fusion (Arabidopsis thaliana); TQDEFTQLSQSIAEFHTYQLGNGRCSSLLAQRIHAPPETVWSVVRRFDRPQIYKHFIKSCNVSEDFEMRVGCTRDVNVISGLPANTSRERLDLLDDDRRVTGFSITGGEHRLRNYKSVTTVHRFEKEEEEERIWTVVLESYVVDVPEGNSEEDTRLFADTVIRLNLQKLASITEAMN; partner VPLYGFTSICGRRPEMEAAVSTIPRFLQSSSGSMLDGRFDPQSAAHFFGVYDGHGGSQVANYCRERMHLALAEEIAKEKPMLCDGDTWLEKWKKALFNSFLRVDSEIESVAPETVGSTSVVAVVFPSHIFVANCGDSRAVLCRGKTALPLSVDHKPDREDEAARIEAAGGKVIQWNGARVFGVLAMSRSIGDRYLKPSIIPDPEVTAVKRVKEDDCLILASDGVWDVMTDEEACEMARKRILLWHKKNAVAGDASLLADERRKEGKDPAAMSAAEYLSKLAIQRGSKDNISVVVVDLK
Variant | relative binding score [%]
R69L | 96.5
G71D | 74.1
I105S | 100
L138Q | 72.8
E147W | 91.9
L93A | 99.9
E130K | 115
E152S | 101
E127Y | 108
Q51T | 92.2
I12P | 56.8
E129A | 112
I33E | -15.8
S150W | 65.9
Y53V | 58.3
S27P | -20.4
E38C | 88.7

Set 5 — target: UBE2L6 UBC core domain (UniProt O14933); method: yeast two-hybrid; matrix: yeast; notes: mostly zero background; relative to: not given; reading: higher = stronger interaction
B1: RNF135 RING domain (UniProt Q8IUD6); chain PVWLAEDDLGCIICQGLLDWPATLPCGHSFCRHCLEALWGARDARRWACPTCRQGAAQQPHLR
B2: PRKN RING domain (UniProt O60260); chain LIATNSRNITCITCTDVRSPVLVFQCNSRHVICLDCFHLYCVTRLNDRQFVHDPQLGYSLPCVAGCPNSLIKELHH
B3: DTX1 RING domain (UniProt Q86Y01); chain QKVKNPPDEDCTICMERLVTASGYEGVLRHKGVRPELVGRLGRCGHMYHLLCLVAMYSNGNKDGSLQCPTCKAIYGEKTGTQ
B4: RNF24 RING domain (UniProt Q9Y225); chain KVKELNLHELCAVCLEDFKPRDELGICPCKHAFHRKCLIKWLEVRKVCPLCNMPVLQLAQLH
B5: RNF181 RING domain (UniProt Q9P0P0); chain VIRGSQAELKCPVCLLEFEEEETAIEMPCHHLFHSSCILPWLSKTNSCPLCRYELPTDDDTY
B6: TRIM48 RING domain (UniProt Q8IWZ4); chain ISQVFQRELTCPICMNYFIDPVTIDCGHSFCRPCFYLNWQDIPILTQCFECIKTIQQRNLKT
B7: TRIM22 RING domain (UniProt Q8IYM9); chain KEVKMSPQEGQKRDVCEHHGKKLQIFCKEDGKVICWVCELSQEHQGHQTFRINEVVKECQEK
B8: Ltn1 RING domain (UniProt Q6A009); chain VDKRFEGVEDCMICFSVIHGFNYSLPKKACRTCKKKFHSACLYKWFTSSNKSTCPLCRETFF
B9: ZNRF3 RING domain (UniProt Q9ULT6); chain DTLSSSSTSDCAICLEKYIDGEELRVIPCTHRFHRKCVDPWLLQHHTCPHCRHNIIEQKGNP
Target sequence (chain): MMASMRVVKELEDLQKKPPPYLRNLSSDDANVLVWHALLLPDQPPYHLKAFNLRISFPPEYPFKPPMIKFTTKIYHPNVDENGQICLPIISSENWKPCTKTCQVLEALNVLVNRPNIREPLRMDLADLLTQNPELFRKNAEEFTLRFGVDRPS
Molecule | lacZ reporter activity
KEQLEKHNDICAICYQDMKSAVITPCSHFFHAGCLKKWLYVQETCPLCHCHLKNSSQLP (RNF145 RING domain (UniProt Q96MT1)) | 0
ALDRLEKLLRCSRCTNILREPVCLGGCEHIFCSNCVSDCIGTGCPVCYTPAWIQDLKI (BARD1 RING domain (UniProt Q99728)) | 0
NTAPSLTVPECAICLQTCVHPVSLPCKHVFCYLCVKGASWLGKRCALCRQEIPEDFLDK (RNF146 RING domain (UniProt Q9NTX7)) | 0
B1 (RNF135 RING domain) | 0
B2 (PRKN RING domain) | 0
B3 (DTX1 RING domain) | 0
B4 (RNF24 RING domain) | 0
B5 (RNF181 RING domain) | 0
KITELNPHLMCVLCGGYFIDATTIIECLHSFCKTCIVRYLETSKYCPICDVQVHKTRPLL (BMI1 RING domain (UniProt P35226)) | 0
B6 (TRIM48 RING domain) | 0
KLWDINAHITCRLCSGYLIDATTVTECLHTFCRSCLVKYLEENNTCPTCRIVIHQSHPLQ (PCGF3 RING domain (UniProt Q3KNV8)) | 0
B7 (TRIM22 RING domain) | 0
QLRRLQEERTCKVCLDRAVSIVFVPCGHLVCAECAPGLQLCPICRAPVRSRVRTF (BIRC7 RING domain (UniProt Q96CA5)) | 0
B8 (Ltn1 RING domain) | 0
MDDQGCPRCKTTKYRNPSLKLMVNVCGHTLCESCVDLLFVRGAGNCPECGTPLRKSNFRV (MNAT1 RING domain (UniProt P51948)) | 0
B9 (ZNRF3 RING domain) | 0

Set 6 — method: universal PBM; form: double-stranded DNA, one strand shown; matrix: in vitro; tested at: not given; reading: higher = stronger binding
Target: Sal-like protein 4, full length isoform B (SALL4, Homo sapiens, UniProt Q9UJQ4-2, residues 1-616)
Notes: 8-mer, flanks averaged, mean of replicates
Target sequence (chain): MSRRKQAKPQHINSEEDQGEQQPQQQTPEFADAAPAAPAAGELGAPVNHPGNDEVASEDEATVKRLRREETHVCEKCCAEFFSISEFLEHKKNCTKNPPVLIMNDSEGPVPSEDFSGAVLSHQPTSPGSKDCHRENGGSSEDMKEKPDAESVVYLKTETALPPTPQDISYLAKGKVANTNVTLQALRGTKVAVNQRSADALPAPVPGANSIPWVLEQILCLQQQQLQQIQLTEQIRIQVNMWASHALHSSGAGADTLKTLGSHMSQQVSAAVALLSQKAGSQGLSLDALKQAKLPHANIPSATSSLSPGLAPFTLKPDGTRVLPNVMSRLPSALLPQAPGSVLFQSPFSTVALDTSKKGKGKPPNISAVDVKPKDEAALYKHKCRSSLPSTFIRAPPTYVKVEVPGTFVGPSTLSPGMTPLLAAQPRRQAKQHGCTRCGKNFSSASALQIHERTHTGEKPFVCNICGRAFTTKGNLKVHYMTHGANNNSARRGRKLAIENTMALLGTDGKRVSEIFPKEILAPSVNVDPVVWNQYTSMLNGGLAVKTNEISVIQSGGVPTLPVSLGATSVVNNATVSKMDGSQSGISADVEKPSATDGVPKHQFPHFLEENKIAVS
Sequence | E-score
GGGTCAAA | -0.133
TAGCTCGA | -0.191
AGGGCAAC | -0.15
AATTGCGT | 0.0359
GCTAAGAC | -0.0268
TCTCGACA | 0.0858
GGATAGCA | 0.156
GATGCGCA | -0.0852
TATGAGCA | 0.201
ATACTTAG | 0.12
CTCGTTTA | 0.0954
CTGGAATA | 0.138
ACCACGGT | -0.212
CGCTTTAC | 0.0407
GATCGTGC | -0.0255
CATGACAA | 0.0147
AGTACGTG | -0.0994
AGCTTGCA | 0.0277
CGTTGGAG | -0.166
CAATACCA | 0.214
AATTTTAG | 0.273
CACATAGC | -0.121
AGTCCTCC | -0.0644
GAGGGGAC | -0.335
ACGCAATG | 0.0196

Some of these lines once more (set 1):
Variant | normalised enrichment score
PPHRRSLLFACSP [R6S] | 2.78
PPHRRRLLFACLP [S12L] | 6.61
PPHRRRLLDACSP [F9D] | 0.248
PPHRRRLLFACSS [P13S] | 7.2
PPHRRRLLFACRP [S12R] | 6.68
PPHRRRLLRACSP [F9R] | 2.34
PPHRRCLLFACSP [R6C] | 4.97
FPHRRRLLFACSP [P1F] | 7.31
